{"data": "Results pooled from the literature", "CASP7": "Caspase-7 (CASP7, Homo sapiens, UniProt P55210)", "T1": "G-quadruplex DNA, G-quadruplex (Homo sapiens); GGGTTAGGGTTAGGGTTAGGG", "note": "Compare with care: the assays were run in different laboratories. “And” joins repeats or separate records; there may be more than shown. ± gives the spread as reported.", "UniProt P55210, sequence (whole entry, looked up)": "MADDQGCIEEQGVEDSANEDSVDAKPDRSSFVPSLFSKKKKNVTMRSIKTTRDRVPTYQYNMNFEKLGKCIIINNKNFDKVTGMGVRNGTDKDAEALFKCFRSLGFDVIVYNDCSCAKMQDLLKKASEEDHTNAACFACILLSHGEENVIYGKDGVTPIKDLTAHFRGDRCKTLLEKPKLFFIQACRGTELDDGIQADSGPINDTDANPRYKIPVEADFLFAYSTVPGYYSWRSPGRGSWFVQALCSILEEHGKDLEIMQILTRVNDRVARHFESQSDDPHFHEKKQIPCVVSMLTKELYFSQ", "UniProt Q13148, sequence (whole entry, looked up)": "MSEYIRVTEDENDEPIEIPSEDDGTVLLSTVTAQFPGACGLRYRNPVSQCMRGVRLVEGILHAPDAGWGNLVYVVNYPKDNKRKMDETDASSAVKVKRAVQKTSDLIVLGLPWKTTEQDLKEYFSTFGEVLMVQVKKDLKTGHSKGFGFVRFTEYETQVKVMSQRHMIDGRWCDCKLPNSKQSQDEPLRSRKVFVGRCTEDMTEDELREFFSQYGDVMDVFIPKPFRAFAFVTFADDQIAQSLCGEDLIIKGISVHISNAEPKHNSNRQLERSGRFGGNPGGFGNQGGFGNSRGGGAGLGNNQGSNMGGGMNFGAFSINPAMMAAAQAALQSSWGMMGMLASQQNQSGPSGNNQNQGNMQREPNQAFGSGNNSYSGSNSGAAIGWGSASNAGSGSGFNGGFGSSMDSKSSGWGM", "UniProt P53396, sequence (whole entry, looked up)": "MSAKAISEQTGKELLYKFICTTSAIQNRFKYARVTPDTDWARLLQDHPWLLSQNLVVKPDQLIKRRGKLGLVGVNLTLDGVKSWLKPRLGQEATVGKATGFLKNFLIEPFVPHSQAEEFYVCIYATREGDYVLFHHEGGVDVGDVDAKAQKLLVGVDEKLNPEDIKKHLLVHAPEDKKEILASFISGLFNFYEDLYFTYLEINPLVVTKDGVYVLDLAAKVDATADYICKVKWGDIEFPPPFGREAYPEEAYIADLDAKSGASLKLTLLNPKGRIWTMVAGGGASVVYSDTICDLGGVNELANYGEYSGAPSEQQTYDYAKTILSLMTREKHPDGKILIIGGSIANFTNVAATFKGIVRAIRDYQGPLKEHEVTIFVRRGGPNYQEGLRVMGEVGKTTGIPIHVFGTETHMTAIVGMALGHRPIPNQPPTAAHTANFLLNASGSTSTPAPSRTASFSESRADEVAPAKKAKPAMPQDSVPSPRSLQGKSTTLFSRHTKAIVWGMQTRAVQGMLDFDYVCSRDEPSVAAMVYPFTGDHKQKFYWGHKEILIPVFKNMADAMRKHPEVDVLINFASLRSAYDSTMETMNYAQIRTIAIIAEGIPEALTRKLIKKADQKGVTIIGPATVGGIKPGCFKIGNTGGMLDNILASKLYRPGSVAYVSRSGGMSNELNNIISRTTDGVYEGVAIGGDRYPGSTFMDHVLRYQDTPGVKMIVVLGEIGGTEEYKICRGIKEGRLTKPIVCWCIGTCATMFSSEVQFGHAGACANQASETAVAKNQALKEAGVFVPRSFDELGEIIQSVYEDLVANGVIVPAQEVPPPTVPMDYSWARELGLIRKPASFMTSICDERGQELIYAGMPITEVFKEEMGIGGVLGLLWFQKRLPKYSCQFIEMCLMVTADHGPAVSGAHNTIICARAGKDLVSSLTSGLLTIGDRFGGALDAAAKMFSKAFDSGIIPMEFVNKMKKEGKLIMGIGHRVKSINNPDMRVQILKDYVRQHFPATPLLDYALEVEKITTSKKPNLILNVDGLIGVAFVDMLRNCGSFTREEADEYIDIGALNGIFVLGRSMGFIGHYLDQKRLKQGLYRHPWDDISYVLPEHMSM", "UniProt P34972, sequence (whole entry, looked up)": "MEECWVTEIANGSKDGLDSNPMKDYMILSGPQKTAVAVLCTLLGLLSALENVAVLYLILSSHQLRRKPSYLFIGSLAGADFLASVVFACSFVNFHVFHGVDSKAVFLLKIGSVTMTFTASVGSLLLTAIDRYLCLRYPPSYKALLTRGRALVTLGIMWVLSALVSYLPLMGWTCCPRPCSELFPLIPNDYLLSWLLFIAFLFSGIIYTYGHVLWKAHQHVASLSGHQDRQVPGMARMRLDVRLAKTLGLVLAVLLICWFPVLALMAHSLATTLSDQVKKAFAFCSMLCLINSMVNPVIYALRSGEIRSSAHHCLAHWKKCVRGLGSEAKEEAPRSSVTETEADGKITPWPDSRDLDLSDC", "UniProt P02716, sequence (whole entry, unmodified, looked up)": "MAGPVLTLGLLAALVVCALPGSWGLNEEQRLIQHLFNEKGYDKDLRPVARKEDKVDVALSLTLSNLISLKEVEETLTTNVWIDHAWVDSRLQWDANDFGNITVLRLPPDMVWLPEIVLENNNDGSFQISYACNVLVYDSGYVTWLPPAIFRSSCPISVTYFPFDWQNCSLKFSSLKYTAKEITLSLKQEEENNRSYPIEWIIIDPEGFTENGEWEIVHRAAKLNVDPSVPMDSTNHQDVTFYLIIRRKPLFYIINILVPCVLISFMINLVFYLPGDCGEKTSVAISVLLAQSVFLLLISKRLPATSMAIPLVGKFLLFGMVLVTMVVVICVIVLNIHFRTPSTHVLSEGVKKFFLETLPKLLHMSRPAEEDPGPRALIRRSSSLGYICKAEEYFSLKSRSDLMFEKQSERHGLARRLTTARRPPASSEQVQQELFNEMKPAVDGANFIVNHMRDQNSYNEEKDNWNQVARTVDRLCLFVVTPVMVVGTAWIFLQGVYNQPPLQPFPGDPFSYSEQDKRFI", "UniProt P04756, sequence (whole entry, unmodified, looked up)": "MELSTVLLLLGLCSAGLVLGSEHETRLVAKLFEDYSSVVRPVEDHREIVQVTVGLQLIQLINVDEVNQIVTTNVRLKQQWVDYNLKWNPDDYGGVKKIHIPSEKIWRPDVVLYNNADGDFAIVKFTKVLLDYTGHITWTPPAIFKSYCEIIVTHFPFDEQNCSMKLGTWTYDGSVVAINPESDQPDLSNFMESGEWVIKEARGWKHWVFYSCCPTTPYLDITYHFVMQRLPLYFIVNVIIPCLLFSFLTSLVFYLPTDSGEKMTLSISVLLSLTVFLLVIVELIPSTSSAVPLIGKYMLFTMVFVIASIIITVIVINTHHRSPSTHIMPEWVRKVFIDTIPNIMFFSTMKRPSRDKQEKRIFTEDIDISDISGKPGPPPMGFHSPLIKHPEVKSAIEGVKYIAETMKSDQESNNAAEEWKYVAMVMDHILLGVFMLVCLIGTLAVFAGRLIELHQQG", "UniProt P20782, sequence (whole entry, unmodified, looked up)": "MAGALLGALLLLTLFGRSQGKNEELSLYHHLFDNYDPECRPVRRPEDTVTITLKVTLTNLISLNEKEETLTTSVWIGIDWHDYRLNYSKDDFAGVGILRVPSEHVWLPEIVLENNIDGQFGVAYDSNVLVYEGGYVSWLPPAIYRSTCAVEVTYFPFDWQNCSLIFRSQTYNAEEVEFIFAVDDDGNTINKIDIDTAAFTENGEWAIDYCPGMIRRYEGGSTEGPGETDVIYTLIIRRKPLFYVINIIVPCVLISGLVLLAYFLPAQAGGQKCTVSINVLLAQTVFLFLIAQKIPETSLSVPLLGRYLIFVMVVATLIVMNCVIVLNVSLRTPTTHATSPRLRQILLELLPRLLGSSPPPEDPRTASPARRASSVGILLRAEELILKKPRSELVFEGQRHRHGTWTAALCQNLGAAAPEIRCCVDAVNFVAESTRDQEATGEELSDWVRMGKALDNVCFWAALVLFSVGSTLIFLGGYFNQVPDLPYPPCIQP", "UniProt P00519, sequence (whole entry, looked up)": "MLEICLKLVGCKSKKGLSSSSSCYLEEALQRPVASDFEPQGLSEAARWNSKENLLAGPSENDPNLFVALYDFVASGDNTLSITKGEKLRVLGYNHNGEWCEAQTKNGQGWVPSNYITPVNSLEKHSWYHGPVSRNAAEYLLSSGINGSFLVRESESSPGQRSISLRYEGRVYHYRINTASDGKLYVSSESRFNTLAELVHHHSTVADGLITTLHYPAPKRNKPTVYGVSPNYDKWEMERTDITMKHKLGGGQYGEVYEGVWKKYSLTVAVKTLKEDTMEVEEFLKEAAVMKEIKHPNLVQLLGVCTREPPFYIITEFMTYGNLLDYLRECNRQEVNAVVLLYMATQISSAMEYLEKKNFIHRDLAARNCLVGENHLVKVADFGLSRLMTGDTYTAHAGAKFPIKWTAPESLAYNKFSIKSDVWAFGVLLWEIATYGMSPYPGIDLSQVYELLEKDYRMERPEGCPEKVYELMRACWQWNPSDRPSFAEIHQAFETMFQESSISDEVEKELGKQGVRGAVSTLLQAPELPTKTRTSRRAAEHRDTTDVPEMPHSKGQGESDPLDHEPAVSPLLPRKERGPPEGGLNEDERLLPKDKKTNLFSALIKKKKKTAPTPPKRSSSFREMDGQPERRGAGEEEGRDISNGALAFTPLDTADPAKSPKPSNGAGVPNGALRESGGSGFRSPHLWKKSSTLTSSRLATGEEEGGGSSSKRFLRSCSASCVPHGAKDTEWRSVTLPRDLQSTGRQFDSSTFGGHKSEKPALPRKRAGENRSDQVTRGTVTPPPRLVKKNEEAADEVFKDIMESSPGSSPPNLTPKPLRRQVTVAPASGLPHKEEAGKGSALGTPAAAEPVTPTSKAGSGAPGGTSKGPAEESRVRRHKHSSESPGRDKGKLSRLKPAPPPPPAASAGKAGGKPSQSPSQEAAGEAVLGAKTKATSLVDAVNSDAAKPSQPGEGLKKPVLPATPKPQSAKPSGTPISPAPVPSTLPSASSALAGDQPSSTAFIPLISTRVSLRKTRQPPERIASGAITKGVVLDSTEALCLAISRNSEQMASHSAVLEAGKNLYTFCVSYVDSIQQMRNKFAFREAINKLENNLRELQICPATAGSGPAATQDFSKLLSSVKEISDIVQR"}
{"target": "Isocitrate dehydrogenase [NADP] cytoplasmic (IDH1, Homo sapiens, UniProt O75874, R132G)", "setting": "1 h preincubation", "endpoint": "maximum inhibition", "value": "115 ± 4.9%", "SMILES": "C[C@@H](Nc1nc(N[C@H](C)C(F)(F)F)nc(-c2cccc(Cl)n2)n1)C(F)(F)F"}
{"target": "Tyrosine-protein kinase ABL1, non-phosphorylated (ABL1, Homo sapiens, UniProt P00519)", "test": "KinomeScan", "setting": "0.1 µM", "scale": "reference: untreated", "endpoint": "remaining binding", "value": "97%", "SMILES": "CNC1C[S+]2CC[S+]3CC[S+](C1)[Ru-4]321([N]=C=S)[n]2c3ccc(OC)cc3c3c4c(c5cc(F)c[n+]1c5c32)C(=O)NC4=O (centres unmarked)"}
{"target": "CASP7", "test": "enzyme activity, inhibitor", "endpoint": "kinact/KI", "value": "25300 M⁻¹ s⁻¹", "SMILES": "CC[C@H](NC(=O)[C@@H](NC(=O)[C@@H](NC(C)=O)C(C)C)C(C)(C)C)C(=O)N[C@@H](CC(=O)O)C(=O)COC(=O)c1c(C)cccc1C"}
{"target": "Genome polyprotein, NS2B-NS3 protease (dengue virus type 2, UniProt P29990)", "test": "enzyme activity, fluorogenic AMC substrate", "setting": "50 µM", "endpoint": "inhibition", "value": "42%", "SMILES": "Cc1ccc(C(NC(=O)c2cc(-c3ccccc3)n(-c3ccccc3)n2)c2ccncc2)cc1 (centres unmarked)"}
{"target": "Cannabinoid receptor 2 (CNR2, Homo sapiens, UniProt P34972)", "test": "radioligand binding", "scale": "reference: CB1 over CB2 (human)", "endpoint": "Ki ratio", "value": 10, "SMILES": "CCOC(=O)C(CC)(CCCSCCCCCCNC(=O)OC(C)(C)C)NC(=O)c1ccc(C2CC2)c(Cc2ccc(F)cc2)n1 (centres unmarked)"}
{"target": "Glutamate receptor 2 (Gria2, Rattus norvegicus, UniProt P19491)", "test": "glutamate-evoked current, whole-cell patch clamp", "test system": "HEK-293T", "setting": "concentration not given, weighted tau, 1 ms pulse, added: glutamate", "endpoint": "deactivation time constant", "value": "2.8 ± 0.1 ms", "SMILES": "COC(=O)Cc1cc2c(cc1C(=O)c1ccccc1Br)OCO2"}
{"target": "CASP7", "test": "enzyme activity, inhibitor", "endpoint": "kinact/KI", "value": "940000 M⁻¹ s⁻¹", "SMILES": "CCC[C@H](NC(=O)[C@H](CC(=O)O)NC(C)=O)C(=O)N1[C@H](C(=O)N[C@@H](CC(=O)O)C(=O)COC(=O)c2c(C)cccc2C)C[C@@H]2CCCC[C@@H]21"}
{"target": "E3 ubiquitin-protein ligase Mdm2 (MDM2, Homo sapiens, UniProt Q00987)", "test": "thermal stability, DSF", "setting": "30 µM", "endpoint": "ΔTm", "value": "3.23 °C", "SMILES": "CC(=O)N[C@H]1C(n2cc([C@@](C)(O)c3cccc(F)c3)nn2)O[C@H](COCc2ccccc2)[C@H](OCc2ccccc2)[C@@H]1OCc1ccccc1 (some centres unmarked)"}
{"target": "Chrnd/Chrna1/Chrne (Mus musculus, UniProt P02716+P04756+P20782, G173S/S470W)", "test": "ligand binding, agonist, single-channel kinetics", "setting": "chain S", "scale": "reference: wild type over mutant", "endpoint": "affinity ratio", "value": 1.3, "SMILES": "C[N+]1(C)CCCC1"}
{"target": "Hypoxanthine-guanine phosphoribosyltransferase (Trypanosoma cruzi, UniProt Q4DGA3)", "test": "inhibitor, inhibition pattern versus hypoxanthine", "setting": "pH 8.3, 37 °C, added: PRPP 1 mM fixed", "endpoint": "Kii", "value": "210 ± 10 nM", "SMILES": "O=c1[nH]cnc2c([C@@H]3N[C@H](COP(=O)(O)O)[C@@H](O)[C@H]3O)c[nH]c12"}
{"target": "T1, G-quadruplex DNA, G-quadruplex (Homo sapiens)", "test": "FRET melting", "endpoint": "change in melting temperature", "value": "17.9 °C", "SMILES": "C#CCCC1(CCC(=O)NCC2CN(CCCCCNC(=O)CN(CCN)C(=O)Cn3cnc4c(=O)[nH]c(N)nc43)CCN(CCCCCNC(=O)CN(CCN)C(=O)Cn3cnc4c(=O)[nH]c(N)nc43)CCN(CCCCCNC(=O)CN(CCN)C(=O)Cn3cnc4c(=O)[nH]c(N)nc43)CCN2CCCCCNC(=O)CN(CCN)C(=O)Cn2cnc3c(=O)[nH]c(N)nc32)N=N1 (centres unmarked)"}
{"target": "TAR DNA-binding protein 43, aggregated (TARDBP, Homo sapiens, UniProt Q13148)", "test": "radioligand binding", "test system": "human, FTLD-TDP type B sarkosyl-insoluble extract", "setting": "4.94 nM", "endpoint": "specific binding", "value": "0.727 nM and 0.805 nM", "SMILES": "O=C1c2sc(-c3ccc(N4CCC(CO)CC4)nc3F)nc2CCN1c1cccnc1"}
{"target": "ATP-citrate synthase (ACLY, Homo sapiens, UniProt P53396)", "test": "two-step pull-down LC-MS/MS", "test system": "HEK293T", "setting": "click chemistry probe", "endpoint": "spectral count", "value": 2, "SMILES": "N#CN1CC[C@H](C(=O)Nc2nc3c(s2)CN(C(=O)CN=[N+]=[N-])CC3)C1"}
{"target": "human kinase panel", "test": "binding, KINOMEscan", "setting": "10000 nM, %Ctrl below 10", "endpoint": "number of kinases hit", "value": 0, "SMILES": "Cc1ccc(-n2ncc3cc(NC(=O)C4CC4)ccc32)cc1"}
{"note": "A few entries again:"}
{"target": "TAR DNA-binding protein 43, aggregated (TARDBP, Homo sapiens, UniProt Q13148)", "test": "radioligand binding", "test system": "human, FTLD-TDP type B sarkosyl-insoluble extract", "setting": "4.94 nM", "endpoint": "specific binding", "value": "0.727 nM and 0.805 nM", "SMILES": "O=C1c2sc(-c3ccc(N4CCC(CO)CC4)nc3F)nc2CCN1c1cccnc1"}
